{"data": "Experimental data collected from several papers", "note": "Parts stem from different laboratories: compare values within a part only. Positions count from the first letter of the parent shown."}
{"data": "Sample 1", "target": "FOSL2, bZIP domain (human)", "technique": "DHFR protein complementation", "matrix": "yeast", "setting": "single substitutions, most at no-binding floor", "reference": "wild-type JUN-FOS pair", "direction": "higher = stronger binding", "starting sequence": "JUN, bZIP domain (human); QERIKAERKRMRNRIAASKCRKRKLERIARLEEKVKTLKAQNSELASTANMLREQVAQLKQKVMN; partner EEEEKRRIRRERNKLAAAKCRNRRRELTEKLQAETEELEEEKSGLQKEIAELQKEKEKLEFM"}
{"Variant": "A46R", "binding fitness": "0.165 natural log"}
{"Variant": "A29W", "binding fitness": "-0.0714 natural log"}
{"Variant": "S47C", "binding fitness": "0.113 natural log"}
{"Variant": "A29S", "binding fitness": "0.025 natural log"}
{"Variant": "K39W", "binding fitness": "-0.83 natural log"}
{"data": "Sample 2", "target": "CCNA2, cyclin fold, Cln2 fusion (human)", "technique": "yeast growth competition, sequencing", "matrix": "yeast", "setting": "strong parent motif", "reference": "not given", "direction": "higher = stronger binding", "starting sequence": "ORC1 docking peptide (human); PRARKRLELGNLG; partner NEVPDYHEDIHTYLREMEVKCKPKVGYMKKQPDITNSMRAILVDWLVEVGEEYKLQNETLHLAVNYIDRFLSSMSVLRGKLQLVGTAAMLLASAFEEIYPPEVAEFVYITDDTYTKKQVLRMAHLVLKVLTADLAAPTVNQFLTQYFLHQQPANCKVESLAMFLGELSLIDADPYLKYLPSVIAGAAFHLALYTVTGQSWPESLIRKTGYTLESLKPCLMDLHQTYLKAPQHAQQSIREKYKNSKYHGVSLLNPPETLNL"}
{"Variant": "N11R", "normalised enrichment score": 4.37}
{"Variant": "L12R", "normalised enrichment score": 4.06}
{"Variant": "R2Q", "normalised enrichment score": 3.81}
{"Variant": "R4N", "normalised enrichment score": 1.53}
{"Variant": "A3E", "normalised enrichment score": 0.98}
{"Variant": "R6Y", "normalised enrichment score": 1.95}
{"Variant": "R2F", "normalised enrichment score": 2.33}
{"data": "Sample 3", "target": "ABI1, truncated, D143A, DHFR fusion (Arabidopsis thaliana, UniProt P49597)", "technique": "DHFR PCA, dose-response", "matrix": "yeast", "setting": "Hill fit, not affinity, not high confidence", "added": "(+)-ABA, dose series", "direction": "lower = more sensitive", "starting sequence": "PYL1, truncated, DHFR fusion (Arabidopsis thaliana, UniProt Q8VZS8); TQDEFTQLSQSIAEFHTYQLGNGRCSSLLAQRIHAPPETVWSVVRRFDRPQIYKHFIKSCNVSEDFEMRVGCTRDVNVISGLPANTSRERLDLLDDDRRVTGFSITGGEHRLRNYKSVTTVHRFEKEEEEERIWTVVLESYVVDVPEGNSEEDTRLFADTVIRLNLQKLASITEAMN"}
{"Variant": "T135N", "ABA EC50 [µM]": 1820}
{"Variant": "Y53D", "ABA EC50 [µM]": 2.59}
{"Variant": "S117R", "ABA EC50 [µM]": 102}
{"Variant": "L112K", "ABA EC50 [µM]": 100}
{"Variant": "Q167P", "ABA EC50 [µM]": 2.61}
{"data": "Further values, each from its own experiment"}
{"Molecule": "PhoQ, residues 284 288 289 292 302 303 TAVSDG", "target": "PhoP, residues 12 14 15 18 19 GQAIL (Escherichia coli, UniProt P23836)", "assay": "Sort-seq, refers to: YFP reporter", "test system": "E. coli", "setting": "PhoQ-PhoP variant library, added: 10 µM Mg2+", "how to read": "reference: high Mg2+ state, higher = stronger signaling", "measurement": "fold induction", "result": 10.8}
{"note": "Some of these lines once more (sample 2):"}
{"Variant": "R2Q", "normalised enrichment score": 3.81}
{"Variant": "R4N", "normalised enrichment score": 1.53}
